Results gathered from unrelated publications.
A part holds a random share of what one study measured.

Sample 1
Target: Histone acetyltransferase KAT6A, winged helix 1, GST fusion (KAT6A, Homo sapiens, UniProt Q92794, residues 1-85)
Technique: protein binding microarray
Molecule type: double-stranded DNA, one strand shown
Sample: in vitro
Tested at: not given
Notes: 8-mer, flanks averaged, mean of 2 arrays, mostly near background
Baseline: not given
Direction: higher = stronger binding
Construct (chain): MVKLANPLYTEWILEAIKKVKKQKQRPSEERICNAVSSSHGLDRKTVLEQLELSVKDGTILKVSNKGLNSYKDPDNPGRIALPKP
| Strand | E-score |
| --- | --- |
| AGAGTAAG | -0.0634 |
| TACATGAA | -0.0926 |
| TATCTCAA | -0.265 |
| GGTGAGAA | -0.115 |
| CCATATGG | -0.133 |
| GCCCAACC | -0.134 |
| GGCTGAAC | 0.0673 |
| TCGTCTAA | 0.0333 |
| CCCGACCG | 0.349 |

Sample 2
Target: RNA binding protein fox-1 homolog 2, RRM domain, GST-SBP tag (RBFOX2, Homo sapiens, UniProt O43251-10, residues 100-194)
Technique: RNA Bind-n-Seq
Molecule type: RNA
Sample: in vitro
Tested at: 365 nM
Notes: natural RNA segment, single round, ends assumed
Baseline: no-protein control
Direction: higher = stronger binding
All sequences stand within: GGGAGUUCUACAGUCCGACGAUC … UGGAAUUCUCGGGUGCCAA
Construct (chain): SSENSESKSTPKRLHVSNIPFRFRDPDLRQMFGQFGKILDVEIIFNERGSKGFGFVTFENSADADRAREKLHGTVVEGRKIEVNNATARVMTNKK
| Strand | RBNS enrichment (R) |
| --- | --- |
| CUCCUGUUCAGAAUAAUACUUAUUUACGUGUGAAAGCAACAUGGAUGUGAUUCCCAACACAGAAUUUUCAUGACCCUUUUAUUGUAUACAAAUAAAUACCAUAACAGUUA | 0.441 |
| CAGCAUGACCAGAAUAAGACGUUCAUGAGCUUGAAGAUUUGUGUACACAGCCCUCUUUCCGUUGUCCCUGGAAUGAUACUGGCCAGAAGCUGGAGAAUAAACAGGUACUG | 0.608 |
| AAGGUGCUUGCAGUCACCUGAGGCCGUCCGUGUGGCCCAGGGCCCCAGCUGCCUUUAGGGCCCCCAUUGUUCAUAACAGCAUAUGCAUUUCCCCACCGCGUUGUGUCUGC | 0.501 |
| AGGAAGGAACAUCGUGCAGCUGAUGUGAAACUUGCCCUAUUUGGAAUUAGAUUUCCCUAGGAGGUAUGACAUGCGAUUUACUGUAGGCUCUGAAUCCGAGUGCUCCAGUG | 0.801 |
| GCCUCAAACUGCCAUUCACAGUGGUACUGUGAUCCAGACCCCUGAGUGCCACAGGAAGGGUAGGCCCUGGGACAGUGGCUUCAAGUGUCUUUGAGCAAGUAGGCAAGAUA | 0.32 |
| CAGUAUACACAGGACAUUGUUGCUGCCGCCACCGAGACUGGUUUUCUGUCCCUGAGAACAUGACGUUUGUGACGUCCUACCCAUUGGGAGUCCUUCACACCCCAGCCAUC | 0.318 |
| ACCUAGGCAGCCUUGUAUCCAUAGAAAGCCUCCACUGCUGGGCCGGGGAGGGGGUUGUGGUAAGGGCCCUCUGGAAAUCAAGCAGAGAAUGCCUUUGCAGUGGUCUCCCG | 0.413 |

Sample 3
Target: Fragile X messenger ribonucleoprotein 1, C-terminal low-complexity region (Fmr1, Mus musculus, UniProt P35922)
Technique: RNA Bind-n-Seq
Molecule type: RNA
Sample: in vitro
Tested at: 200 nM
Notes: whole 134-nt RNA, ends assumed
Together with: 150 mM LiCl
Baseline: input library
Direction: higher = stronger binding
All molecules: 7-deaza-guanosine replaces G
All sequences stand within: GGGAGUUCUACAGUCCGACGAUC … UGGAAUUCUCGGGUGUCAAGG
| Strand | log2 enrichment |
| --- | --- |
| UCUAGAUACAGAUGCACGAUUUGGCCAUGGAUCCGACUACUCUCGCCAACAGAACAGAUUUAAUGACUUUGAUCACCGAGAGAGGGGCAG | -1.56 |
| CCUCAAGUCCUGUGCUACACAUCGUAUGUACCGAAUCGGGGUGGGUGGGGUGGAAAGUAUUAUGUUACGCCGUUCGGAUCUGCACUUCCA | -1.26 |
| AAGUCCUGUGCUACACAUCGUAUGUACCGAAUCAAACCCCCAAAUUUAAACCCAAAAAAGUAUUAUGUUACGCCGUUCGGAUCUGCACUU | 0.781 |
| UGUCUCGAGCAGGGGACAAGACGUUCGAGGAGUACCUGGAUGAGUAUUACCGGCUGGACUACGAGGACAUCAUCGACGACCUGCCCUGUC | -0.485 |
| CUCAAGUCCUGUGCUACACAUCGUAUGUACCGAAUCGGUUUGGAGGUUUUUGGAAAGUAUUAUGUUACGCCGUUCGGAUCUGCACUUCCA | -0.251 |
| UAACUUUAGAGGAGGAUCUGAUGGAUAUGGCAUUGGACGUGGAUUUGGGGAUGGCUAUAAUGGGUAUGGAGGAGGACCUGGAGGUGGCAA | 0.116 |
| CUCAAGUCCUGUGCUACACAUCGUAUGUACCGAAUCGGGCCCGGCCCGGCCCGGAAAGUAUUAUGUUACGCCGUUCGGAUCUGCACUUCC | -0.793 |
| CCUGUGCUACACAUCGUAUGUACCGAAUCGGUUUUUUUGGUUUUUUUGGUUUUUUUGGGGAAAGUAUUAUGUUACGCCGUUCGGAUCUGC | -1.29 |
| AGUCCUGUGCUACACAUCGUAUGUACCGAAUCGGGAAAGGGAAAAAAAGGGAAAGGGAAAGUAUUAUGUUACGCCGUUCGGAUCUGCACU | -0.921 |

Mixed results
| Substance | target | assay | system | conditions | how to read | quantity | value |
| --- | --- | --- | --- | --- | --- | --- | --- |
| PhoQ, residues 284 288 289 292 302 303 SNSSNI | PhoP, residues 12 14 15 18 19 YHFSH (Escherichia coli, UniProt P23836) | Sort-seq, refers to: YFP reporter | E. coli | PhoQ-PhoP variant library, together with: 10 µM Mg2+ | baseline: high Mg2+ state, higher = stronger signaling | fold induction | 17.3 |
